# Published values collected from several papers.
# Lines come from different studies, so protocols differ.
# Target: SRSF protein kinase 3 (SRPK3, Homo sapiens, UniProt Q9UPE1)
Structure (SMILES),effect on,action,technique,concentration,together with,inhibition [%]
C=CC(=O)Nc1cccc(-c2cnc3[nH]cc(C(=O)NC(C)(C)C)c3n2)c1,enzyme activity,inhibitor,,0.1 µM,,0
Cc1ccc(NC(=O)Nc2ccccc2)cc1,binding,,KINOMEscan competitive binding,concentration not given,,56
CCn1cc(C(=O)O)c(=O)c2c(N)c(F)c(NC3CCCCC3)cc21,kinase activity,,,0.1 µM,ATP at Km,-1.9
Cc1nc2c(F)cc(-c3nc(Nc4ccc(CNC(=O)CCCCCCC(=O)NO)cc4)ncc3F)cc2n1C(C)C,enzyme activity,inhibitor,,1 µM,,80
O=C(Nc1ccccc1)Nc1ccc2c(c1)CCC2,binding,,KINOMEscan competitive binding,concentration not given,,48
Cc1cccc(O[C@H]2CCC[C@@H](C(C)CNCc3ccncc3)C2)c1 (relative stereo),enzyme activity,inhibitor,,1 µM,,-2
C=CC(=O)N1Cc2nc(-c3cc(-c4cc(Cl)cnc4Cl)c(F)cc3F)n(-c3ccncn3)c2C1,cell-free assay,inhibitor,,1 µM,,2.8
N#Cc1ccc(NC(=O)Nc2ccccc2O)cc1,binding,,KINOMEscan competitive binding,concentration not given,,96.8
CN1CC[C@@H](COc2cnc(C#N)cc2-c2ccn3nc(NC(=O)C4CC4)cc3c2)C1,enzyme activity,inhibitor,,1 µM,,6
NC(=O)[C@@H](O)C[C@H]1CCc2sc3ncnc(O[C@H]4CC[C@H](N5CCOCC5)CC4)c3c21,,,radioisotope kinase,10 µM,,10
O=C(Nc1ccccc1)Nc1cccc(O)c1,binding,,KINOMEscan competitive binding,concentration not given,,92.7
NC(=O)C[C@H]1CCc2sc3ncnc(O[C@H]4CC[C@H](N5CCOCC5)CC4)c3c21,,,radioisotope kinase,10 µM,,10
CN1CCN(Cc2ccc(-c3ccc(CO[C@H]4CCC[C@@H]4NC(=O)c4cc(-c5cnn(C)c5)cnc4N)cc3)cc2)CC1,enzyme activity,inhibitor,,0.1 µM,,4

# Repeated from above:
Structure (SMILES),effect on,action,technique,concentration,together with,inhibition [%]
Cc1cccc(O[C@H]2CCC[C@@H](C(C)CNCc3ccncc3)C2)c1 (relative stereo),enzyme activity,inhibitor,,1 µM,,-2
